Measured values gathered from unrelated publications.
Each line is one published result; not all experiments were run side by side. Several values in a cell are separate wells, animals, samples, runs or records. Numbers after ± are the reported error.
Sequence of UniProt O76090 (whole entry, unmodified, looked up): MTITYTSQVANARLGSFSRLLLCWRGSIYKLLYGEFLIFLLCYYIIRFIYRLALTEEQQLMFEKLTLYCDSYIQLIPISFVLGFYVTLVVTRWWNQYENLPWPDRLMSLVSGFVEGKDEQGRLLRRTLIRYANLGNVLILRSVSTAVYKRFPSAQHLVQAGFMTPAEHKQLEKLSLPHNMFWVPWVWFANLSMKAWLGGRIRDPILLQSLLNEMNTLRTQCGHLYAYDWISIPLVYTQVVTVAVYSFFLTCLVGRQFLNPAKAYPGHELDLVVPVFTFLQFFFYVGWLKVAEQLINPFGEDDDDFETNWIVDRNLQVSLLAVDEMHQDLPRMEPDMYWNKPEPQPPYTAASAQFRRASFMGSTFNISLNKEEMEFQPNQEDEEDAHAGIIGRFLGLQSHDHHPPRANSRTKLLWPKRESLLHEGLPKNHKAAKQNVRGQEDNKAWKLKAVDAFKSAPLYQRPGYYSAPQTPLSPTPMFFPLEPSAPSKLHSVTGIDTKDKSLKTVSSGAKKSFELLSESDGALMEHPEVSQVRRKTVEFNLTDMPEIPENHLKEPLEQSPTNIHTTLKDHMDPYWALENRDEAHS
Sequence of UniProt P11388 (whole entry, looked up): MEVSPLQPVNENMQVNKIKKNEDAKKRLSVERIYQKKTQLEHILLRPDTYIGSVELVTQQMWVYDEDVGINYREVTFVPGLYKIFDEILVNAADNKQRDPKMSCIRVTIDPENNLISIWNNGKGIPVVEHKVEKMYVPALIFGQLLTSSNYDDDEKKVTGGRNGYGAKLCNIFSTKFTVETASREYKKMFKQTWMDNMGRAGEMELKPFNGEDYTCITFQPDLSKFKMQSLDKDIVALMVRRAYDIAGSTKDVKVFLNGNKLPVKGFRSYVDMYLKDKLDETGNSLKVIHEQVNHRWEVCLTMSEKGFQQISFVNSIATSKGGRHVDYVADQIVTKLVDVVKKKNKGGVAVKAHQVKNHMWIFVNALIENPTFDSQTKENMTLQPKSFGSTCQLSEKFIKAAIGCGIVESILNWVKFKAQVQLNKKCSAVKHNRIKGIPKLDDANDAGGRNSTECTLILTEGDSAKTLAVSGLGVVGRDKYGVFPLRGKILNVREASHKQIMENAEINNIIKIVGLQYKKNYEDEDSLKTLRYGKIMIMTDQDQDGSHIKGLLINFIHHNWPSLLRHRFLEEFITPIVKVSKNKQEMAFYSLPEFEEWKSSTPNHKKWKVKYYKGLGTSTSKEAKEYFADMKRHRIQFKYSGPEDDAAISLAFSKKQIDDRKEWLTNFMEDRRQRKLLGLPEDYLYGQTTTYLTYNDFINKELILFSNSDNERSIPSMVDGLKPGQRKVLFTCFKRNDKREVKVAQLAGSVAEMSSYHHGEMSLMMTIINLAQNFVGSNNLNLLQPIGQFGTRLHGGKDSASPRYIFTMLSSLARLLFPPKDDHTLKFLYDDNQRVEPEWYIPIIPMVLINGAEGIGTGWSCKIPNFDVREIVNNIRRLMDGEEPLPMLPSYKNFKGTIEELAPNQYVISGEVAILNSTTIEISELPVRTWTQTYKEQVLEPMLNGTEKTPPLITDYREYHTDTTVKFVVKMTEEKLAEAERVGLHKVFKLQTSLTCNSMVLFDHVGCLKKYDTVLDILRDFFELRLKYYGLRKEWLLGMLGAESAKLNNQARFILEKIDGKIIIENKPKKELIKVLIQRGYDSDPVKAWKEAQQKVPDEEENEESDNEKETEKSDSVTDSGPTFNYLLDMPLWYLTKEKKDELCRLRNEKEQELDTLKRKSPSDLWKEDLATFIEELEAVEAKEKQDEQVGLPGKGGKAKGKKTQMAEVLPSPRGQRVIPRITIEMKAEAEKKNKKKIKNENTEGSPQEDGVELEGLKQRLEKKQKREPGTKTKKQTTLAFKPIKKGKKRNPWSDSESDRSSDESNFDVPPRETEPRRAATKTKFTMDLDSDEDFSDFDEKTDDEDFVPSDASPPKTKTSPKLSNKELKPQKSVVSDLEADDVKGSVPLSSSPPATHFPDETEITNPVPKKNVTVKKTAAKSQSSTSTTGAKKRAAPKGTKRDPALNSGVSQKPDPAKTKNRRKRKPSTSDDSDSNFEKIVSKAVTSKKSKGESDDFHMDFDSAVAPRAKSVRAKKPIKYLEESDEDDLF
Sequence of UniProt Q9Y3R4 (whole entry, looked up): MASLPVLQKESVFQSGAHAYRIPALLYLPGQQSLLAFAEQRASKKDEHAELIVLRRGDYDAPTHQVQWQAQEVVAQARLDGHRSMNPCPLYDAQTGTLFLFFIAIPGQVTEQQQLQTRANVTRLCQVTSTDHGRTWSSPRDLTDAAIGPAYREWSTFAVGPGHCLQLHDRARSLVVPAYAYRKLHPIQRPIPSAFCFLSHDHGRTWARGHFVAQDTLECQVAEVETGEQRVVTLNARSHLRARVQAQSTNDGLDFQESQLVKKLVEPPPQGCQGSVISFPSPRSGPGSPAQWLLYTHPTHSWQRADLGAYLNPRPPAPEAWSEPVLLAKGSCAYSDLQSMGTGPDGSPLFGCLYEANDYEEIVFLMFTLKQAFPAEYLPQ
Sequence of UniProt Q04609 (whole entry, looked up): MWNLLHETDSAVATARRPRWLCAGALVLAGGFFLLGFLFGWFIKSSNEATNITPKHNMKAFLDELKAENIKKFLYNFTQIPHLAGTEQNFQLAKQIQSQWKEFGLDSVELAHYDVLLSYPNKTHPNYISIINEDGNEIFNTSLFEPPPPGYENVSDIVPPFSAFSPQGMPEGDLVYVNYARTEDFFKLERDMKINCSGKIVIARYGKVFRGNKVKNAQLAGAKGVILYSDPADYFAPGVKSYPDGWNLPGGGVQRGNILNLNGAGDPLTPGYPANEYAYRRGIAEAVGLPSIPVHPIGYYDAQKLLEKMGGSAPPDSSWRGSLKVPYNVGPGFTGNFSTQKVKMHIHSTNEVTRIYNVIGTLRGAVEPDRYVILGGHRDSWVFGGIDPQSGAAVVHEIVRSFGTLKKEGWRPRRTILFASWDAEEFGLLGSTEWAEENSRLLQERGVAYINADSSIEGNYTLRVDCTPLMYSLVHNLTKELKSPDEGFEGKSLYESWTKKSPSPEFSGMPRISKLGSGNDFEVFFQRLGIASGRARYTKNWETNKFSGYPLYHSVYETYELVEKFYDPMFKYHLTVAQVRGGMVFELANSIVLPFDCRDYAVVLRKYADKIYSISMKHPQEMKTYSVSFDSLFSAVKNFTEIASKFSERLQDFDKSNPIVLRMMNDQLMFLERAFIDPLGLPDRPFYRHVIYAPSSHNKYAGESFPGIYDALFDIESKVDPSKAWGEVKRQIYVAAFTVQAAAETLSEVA
Sequence of UniProt P23204 (whole entry, looked up): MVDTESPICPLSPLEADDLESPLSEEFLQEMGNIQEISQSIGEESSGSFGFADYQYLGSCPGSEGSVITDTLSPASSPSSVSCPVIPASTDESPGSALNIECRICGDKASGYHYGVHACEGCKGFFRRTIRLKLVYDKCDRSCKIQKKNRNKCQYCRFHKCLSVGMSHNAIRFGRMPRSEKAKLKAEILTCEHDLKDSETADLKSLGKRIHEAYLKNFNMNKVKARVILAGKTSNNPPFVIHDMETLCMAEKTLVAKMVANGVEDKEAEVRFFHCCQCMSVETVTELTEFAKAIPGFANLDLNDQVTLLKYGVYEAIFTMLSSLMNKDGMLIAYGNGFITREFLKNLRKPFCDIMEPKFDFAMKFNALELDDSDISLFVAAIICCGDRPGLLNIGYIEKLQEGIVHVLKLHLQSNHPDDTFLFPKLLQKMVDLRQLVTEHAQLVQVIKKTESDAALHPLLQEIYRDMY
Sequence of UniProt Q86X55 (whole entry, looked up): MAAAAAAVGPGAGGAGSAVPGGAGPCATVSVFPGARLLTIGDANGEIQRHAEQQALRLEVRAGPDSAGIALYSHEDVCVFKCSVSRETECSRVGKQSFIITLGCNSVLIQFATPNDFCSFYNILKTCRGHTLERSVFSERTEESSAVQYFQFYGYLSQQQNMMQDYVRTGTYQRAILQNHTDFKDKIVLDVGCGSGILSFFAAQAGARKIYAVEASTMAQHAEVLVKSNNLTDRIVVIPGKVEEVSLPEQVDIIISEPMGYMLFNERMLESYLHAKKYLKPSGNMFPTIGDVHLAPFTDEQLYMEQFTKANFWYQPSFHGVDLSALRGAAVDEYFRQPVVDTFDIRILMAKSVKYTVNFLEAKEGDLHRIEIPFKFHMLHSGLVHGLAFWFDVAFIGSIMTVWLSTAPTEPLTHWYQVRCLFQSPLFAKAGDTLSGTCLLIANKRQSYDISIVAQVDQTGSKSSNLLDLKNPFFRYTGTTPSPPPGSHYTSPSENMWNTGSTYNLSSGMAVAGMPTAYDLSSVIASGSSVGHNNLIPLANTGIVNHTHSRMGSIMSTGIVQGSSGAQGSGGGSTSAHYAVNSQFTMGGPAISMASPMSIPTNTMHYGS
Sequence of UniProt Q16611 (whole entry, looked up): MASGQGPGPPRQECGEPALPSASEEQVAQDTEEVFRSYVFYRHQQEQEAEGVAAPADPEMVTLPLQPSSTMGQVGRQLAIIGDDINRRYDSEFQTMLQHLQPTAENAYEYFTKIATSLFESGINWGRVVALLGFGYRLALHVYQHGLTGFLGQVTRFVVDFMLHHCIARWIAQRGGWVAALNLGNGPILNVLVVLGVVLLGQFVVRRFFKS
Sequence of UniProt P31749 (whole entry, looked up): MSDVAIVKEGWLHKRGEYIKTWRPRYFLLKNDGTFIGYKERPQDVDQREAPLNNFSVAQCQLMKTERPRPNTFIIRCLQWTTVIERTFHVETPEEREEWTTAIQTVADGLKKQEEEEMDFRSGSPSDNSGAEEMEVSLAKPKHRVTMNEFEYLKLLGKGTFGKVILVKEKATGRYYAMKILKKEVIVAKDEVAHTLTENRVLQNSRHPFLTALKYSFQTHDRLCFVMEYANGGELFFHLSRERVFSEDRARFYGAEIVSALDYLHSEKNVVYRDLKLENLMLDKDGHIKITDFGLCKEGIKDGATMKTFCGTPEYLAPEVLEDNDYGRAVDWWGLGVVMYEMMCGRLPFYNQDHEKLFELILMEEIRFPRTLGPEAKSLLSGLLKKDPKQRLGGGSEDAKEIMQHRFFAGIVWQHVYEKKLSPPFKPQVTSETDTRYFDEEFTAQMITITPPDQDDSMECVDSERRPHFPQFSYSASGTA

| SMILES | tested on | assay | test system | conditions | how to read | quantity | value |
| --- | --- | --- | --- | --- | --- | --- | --- |
| O=C(NCCN1CCCC1=O)c1ccc(C2CCCCC2)cc1 |  | hepatocyte stability | cryopreserved human hepatocytes | 1 µM |  | hepatic clearance | 18 mL/min/kg |
| Cc1cc(-c2ccnc3[nH]cc(F)c23)cc(F)c1[C@@]1(O)[C@H](C)CN(C2CCS(=O)(=O)CC2)C[C@@H]1C | RAC-alpha serine/threonine-protein kinase (AKT1, Homo sapiens, UniProt P31749) | ATP/ADP probe binding, KiNativ | HEK293T lysate | 1 µM, ATP loop peptide |  | probe labelling inhibition | 4.4% |
| CC1(C)CN(CCCCC(=O)N[C@@H](CCCCNC(=O)CCCCCCC(=O)NCCCC[C@H](NC(=O)N[C@@H](CCC(=O)O)C(=O)O)C(=O)O)C(=O)O)CC[N]2CC(C)(C)[S][Tc]2(=[O])[S]1 (stereo partly drawn) [technetium-99m labelled] | Glutamate carboxypeptidase 2 (FOLH1, Homo sapiens, UniProt Q04609) | radioligand, saturation binding | LNCaP | 1 h, 37 °C, together with: [99mTc]TcO-6 |  | Bmax | 9 ± 1.5 pmol/mg |
| CCCCCCCCCCCCCCCCCCc1ccc(O)cc1 | Albumin (ALB, Bos taurus, UniProt P02769) | fluorescence quenching |  | concentration not given, 37 °C |  | number of binding sites | ~0.92 |
| CCO[C@H](COc1ccc(C(F)(F)F)cc1)CSc1ccc(OCC(=O)O)c(C)c1 | Peroxisome proliferator-activated receptor alpha (Ppara, Mus musculus, UniProt P23204) | receptor activation, agonist |  | species mouse | relative to: internal control agonist | Emax | 15% |
| CC[C@H](C)[C@H](NC(=O)[C@H](Cc1ccccc1)NC(=O)[C@H](CCC(=O)O)NC(=O)[C@H](CCCNC(=N)N)NC(=O)[C@H](C)NC(=O)[C@H](C)NC(=O)[C@H](CCC(N)=O)NC(=O)[C@H](CCC(=O)O)NC(=O)[C@H](CCC(=O)O)NC(=O)[C@H](CC(C)C)NC(=O)[C@H](Cc1ccc(O)cc1)NC(=O)[C@H](CO)NC(=O)[C@H](CO)NC(=O)[C@@H](NC(=O)[C@H](CC(=O)O)NC(=O)[C@H](CO)NC(=O)[C@@H](NC(=O)[C@H](Cc1ccccc1)NC(=O)[C@@H](NC(=O)CNC(=O)[C@H](CCC(=O)O)NC(=O)[C@H](C)NC(=O)CCc1cnc[nH]1)[C@@H](C)O)[C@@H](C)O)C(C)C)C(=O)N[C@@H](C)C(=O)N[C@@H](Cc1c[nH]c2ccccc12)C(=O)N[C@@H](CC(C)C)C(=O)N[C@H](C(=O)N[C@@H](CCCNC(=N)N)C(=O)NCC(=O)N[C@@H](CCCNC(=N)N)C(=O)N[C@@H](CCCCNC(=O)COCCOCCNC(=O)COCCOCCNC(=O)CC[C@H](NC(=O)CCCCCCCCCCCCCCCCC(=O)O)C(=O)O)C(=O)NCC(=O)NCC(=O)N[C@@H](CO)C(=O)N[C@@H](CCCCNc1c(NCCCCCN(O)C(=O)CCC(=O)NCCCCCN(O)C(=O)CCC(=O)NCCCCCN(O)C(C)=O)c(=O)c1=O)C(=O)NCC(=O)NCC(=O)N[C@@H](CO)C(=O)N[C@@H](CCCCNc1c(NCCCCCN(O)C(=O)CCC(=O)NCCCCCN(O)C(=O)CCC(=O)NCCCCCN(O)C(C)=O)c(=O)c1=O)C(=O)NCC(=O)NCC(=O)N[C@@H](CO)C(=O)N[C@@H](CCCCNc1c(NCCCCCN(O)C(=O)CCC(=O)NCCCCCN(O)C(=O)CCC(=O)NCCCCCN(O)C(C)=O)c(=O)c1=O)C(=O)NCC(=O)NCC(=O)N[C@@H](CO)C(=O)N[C@@H](CCCCNc1c(NCCCCCN(O)C(=O)CCC(=O)NCCCCCN(O)C(=O)CCC(=O)NCCCCCN(O)C(C)=O)c(=O)c1=O)C(=O)O)C(C)C | Glucagon-like peptide 1 receptor (GLP1R, Homo sapiens, UniProt P43220) | agonist, CRE luciferase reporter | BHK cells | metal-free DFO conjugate, together with: 0% HSA | relative to: parent peptide | fold potency loss | 18.9 |
| O=c1nc(SCc2cc(F)cc(C(F)(F)F)c2)nc(SCc2csc3ccc(Cl)cc23)[nH]1 | DNA topoisomerase 2-alpha (TOP2A, Homo sapiens, UniProt P11388) | decatenation |  | 1.95 µM, replicate 1 |  | decatenated DNA | 39.7% |
| CC[C@H](C)[C@H](NC(=O)[C@H](C)NC(=O)[C@H](CC(=O)O)NC(C)=O)C(=O)N[C@H](C(=O)N[C@@H](CCC(N)=O)C(=O)N[C@@H](CCSC)C(=O)N[C@H](C(=O)N[C@H](C(=O)N[C@@H](CCC(=O)O)C(=O)N[C@@H](CC(C)C)C(=O)N[C@@H](CC(C)C)C(=O)N[C@@H](CCCCN)C(=O)N[C@@H](CCCNC(=N)N)C(=O)N[C@H](C(=O)NCC(=O)N[C@@H](CC(=O)O)C(=O)N[C@@H](CCC(N)=O)C(=O)N[C@@H](Cc1c[nH]c2ccccc12)C(=O)N[C@@H](CCC(=O)O)C(=O)N[C@@H](CCC(=O)O)C(=O)N[C@@H](CCC(=O)O)C(=O)N[C@@H](CCC(N)=O)C(=O)N[C@@H](CO)C(=O)N[C@@H](CC(C)C)C(=O)N[C@@H](C)C(N)=O)C(C)C)C(C)C)[C@@H](C)CC)[C@@H](C)CC | Bcl-2 homologous antagonist/killer (BAK1, Homo sapiens, UniProt Q16611) | binding, bio-layer interferometry |  | pH 7.5, 2% DMSO |  | kon | 387 M⁻¹ s⁻¹ |
| O=C(CO)NC1C(O)CC(OCC2OC(Oc3ccc([N+](=O)[O-])cc3)C(O)C(O)C2O)(C(=O)O)OC1C(O)C(O)CO (stereo not drawn) | Sialidase-2 (Homo sapiens, UniProt Q9Y3R4) | substrate |  | 10 min, pH 5.0, 37 °C |  | Vmax | 0.0019 ± 0.0001 mM/s |
| CCCCN1/C(=C/C=C(Br)/C=C/C2=[N+](CCCC)c3ccc(Br)cc3C2(C)C)C(C)(C)c2cc(Br)ccc21.[I-] | Histone-arginine methyltransferase CARM1 (CARM1, Homo sapiens, UniProt Q86X55) | inhibitor, filter binding |  | together with: histone H3.3 substrate |  | Hill coefficient | 1.48 |
| Nc1ccc(C(=O)O)cc1 | BEST1, with wild-type BEST1 (Homo sapiens, UniProt O76090, D302A) | ion current, whole-cell patch clamp | HEK293 co-expressing mutant and wild-type | concentration not given, voltage -20 mV |  | current density | -4.47 pA/pF and -3.27 pA/pF and -3.66 pA/pF and -3.3 pA/pF and -1.46 pA/pF and -1.61 pA/pF |
| COCCN(C)C(=O)c1ccc(C2CCCCC2)cc1 |  | liver microsome stability | human liver microsomes | 1 µM, without NADPH |  | hepatic clearance | 3.9 mL/min/kg |

A few entries again:
| SMILES | tested on | assay | test system | conditions | how to read | quantity | value |
| --- | --- | --- | --- | --- | --- | --- | --- |
| O=C(CO)NC1C(O)CC(OCC2OC(Oc3ccc([N+](=O)[O-])cc3)C(O)C(O)C2O)(C(=O)O)OC1C(O)C(O)CO (stereo not drawn) | Sialidase-2 (Homo sapiens, UniProt Q9Y3R4) | substrate |  | 10 min, pH 5.0, 37 °C |  | Vmax | 0.0019 ± 0.0001 mM/s |
